Assay results from different studies.
A part holds a random share of what one study measured.

Sample 1
Target: Interferon regulatory factor 3, full length, phosphomimetic (IRF3, Homo sapiens, UniProt Q14653, residues 1-427, S386D/S396D/S398D/S402D/T404D/S405D)
UniProt Q14653, sequence (whole entry, unmodified, looked up): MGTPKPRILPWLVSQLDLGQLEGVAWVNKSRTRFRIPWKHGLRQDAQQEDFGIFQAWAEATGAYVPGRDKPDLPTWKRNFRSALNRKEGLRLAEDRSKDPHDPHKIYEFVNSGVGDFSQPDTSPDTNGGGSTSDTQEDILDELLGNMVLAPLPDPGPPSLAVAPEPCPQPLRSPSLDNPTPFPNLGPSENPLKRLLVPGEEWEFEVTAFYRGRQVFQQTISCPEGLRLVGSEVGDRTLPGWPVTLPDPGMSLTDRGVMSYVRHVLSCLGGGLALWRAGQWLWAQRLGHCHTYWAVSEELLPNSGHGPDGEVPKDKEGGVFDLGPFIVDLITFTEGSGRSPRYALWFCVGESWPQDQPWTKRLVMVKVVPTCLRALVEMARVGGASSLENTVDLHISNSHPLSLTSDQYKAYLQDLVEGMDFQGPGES
Method: protein-binding microarray
Form: double-stranded DNA, one strand shown
Medium: in vitro
Tested at: 2540 nM top
Notes: 60-bp whole probe
Together with: salmon DNA 0.4 mg/ml
Reference: random background probes
Direction: higher = stronger binding
Constant ends, left off below: GCCTAGCAC … GTCTTGATTCGCTTGACGCTGCTG
Sequence	fitted relative affinity
AACGGTTTCGACACTGGGGACGTGCTA	2.85 z-score
GACGGACTGGGGTTGCGGGACGTGCTA	-0.292 z-score
GACGATATCAGTTCCGAGACGTGCTAG	1.56 z-score
TCAGGTTTCCTTTCCCTTTAGTGCTAG	10.3 z-score
CATTTTCTCTGTTCTAGAAGGTGCTAG	3.75 z-score

Sample 2
Target: PABPC1L2, full length, GST fusion (mouse, UniProt A0ABA7IW68)
Method: RNAcompete
Form: RNA
Medium: in vitro
Tested at: 20 nM
Notes: 7-mer, probes averaged, single round
Reference: mean of 7-mers
Direction: higher = stronger binding
Target sequence (chain): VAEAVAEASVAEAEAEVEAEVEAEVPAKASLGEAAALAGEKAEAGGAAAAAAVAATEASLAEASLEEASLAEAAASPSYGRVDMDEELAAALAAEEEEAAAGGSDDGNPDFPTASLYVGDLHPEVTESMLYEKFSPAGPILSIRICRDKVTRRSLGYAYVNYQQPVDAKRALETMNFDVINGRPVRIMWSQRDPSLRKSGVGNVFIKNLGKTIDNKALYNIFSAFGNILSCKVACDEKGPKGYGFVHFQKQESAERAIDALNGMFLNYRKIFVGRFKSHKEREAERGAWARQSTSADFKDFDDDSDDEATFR
Sequence	7-mer Z-score
UCGCCAA	-0.307
CUGGCGU	-0.144
GUGCCCA	-0.121
GUUGACG	-0.159

Sample 3
Target: Histone acetyltransferase KAT6A, both winged helices, GST fusion (KAT6A, Homo sapiens, UniProt Q92794, residues 1-181)
Method: protein binding microarray
Form: double-stranded DNA, one strand shown
Medium: in vitro
Tested at: not given
Notes: 8-mer, flanks averaged, mean of 2 arrays, mostly near background
Reference: not given
Direction: higher = stronger binding
Target sequence (chain): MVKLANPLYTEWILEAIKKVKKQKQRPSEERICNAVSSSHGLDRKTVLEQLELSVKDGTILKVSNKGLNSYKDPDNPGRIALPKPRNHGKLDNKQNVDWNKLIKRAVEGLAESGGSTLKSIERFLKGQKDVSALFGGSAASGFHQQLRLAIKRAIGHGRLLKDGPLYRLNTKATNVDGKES
Sequence	E-score
AGAGTAGC	-0.21
AAGAAAAA	-0.0953
TCAAGCAA	-0.0701
CGTCATAA	0.00645

Single results of other studies
Molecule	target	test	test system	conditions	how to read	measurement	result
PhoQ, residues 284 288 289 292 302 303 GASLAW	PhoP, residues 12 14 15 18 19 AWHSL (Escherichia coli, UniProt P23836)	Sort-seq, refers to: YFP reporter	E. coli	PhoQ-PhoP variant library, together with: 10 µM Mg2+	reference: high Mg2+ state, higher = stronger signaling	fold induction	1.32
